Results from different studies.
Each numbered part is a random draw from the data of one study; scales do not carry over between parts. ± gives the spread as reported.

Sample 1
Target: SPT15 full length assumed (Saccharomyces cerevisiae, UniProt P13393)
Technique: array
Form: double-stranded DNA, one strand shown
Notes: TBP alone
Measurement: Kd
Each molecule: dsDNA; 5'-amino-C6 primer
Construct (chain): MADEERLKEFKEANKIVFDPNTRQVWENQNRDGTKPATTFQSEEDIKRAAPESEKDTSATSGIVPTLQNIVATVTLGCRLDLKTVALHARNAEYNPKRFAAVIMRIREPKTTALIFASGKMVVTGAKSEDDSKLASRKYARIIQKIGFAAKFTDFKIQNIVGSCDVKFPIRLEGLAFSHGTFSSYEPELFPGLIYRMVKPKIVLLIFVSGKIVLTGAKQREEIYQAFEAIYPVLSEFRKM
TCCTGAAGGGACGCCTATAAAAGGTCCTATCGTCGTCAAGTCAATCGGTCC: 4.94 ± 0.78 nM
CTCGCTCCATCTCCAGAACTACAAGTCCCAGAGTGTCAAGTCAATCGGTCC: 5.57 ± 0.4 nM
TACTTCAGTTGTGAAGTGTAACAAGGTCTTATAATTCAAGTCAATCGGTCC: 2.52 ± 0.26 nM

Sample 2
Target: U2AF2 148-342 (Homo sapiens, UniProt P26368)
Chain of UniProt P26368 (whole entry, looked up): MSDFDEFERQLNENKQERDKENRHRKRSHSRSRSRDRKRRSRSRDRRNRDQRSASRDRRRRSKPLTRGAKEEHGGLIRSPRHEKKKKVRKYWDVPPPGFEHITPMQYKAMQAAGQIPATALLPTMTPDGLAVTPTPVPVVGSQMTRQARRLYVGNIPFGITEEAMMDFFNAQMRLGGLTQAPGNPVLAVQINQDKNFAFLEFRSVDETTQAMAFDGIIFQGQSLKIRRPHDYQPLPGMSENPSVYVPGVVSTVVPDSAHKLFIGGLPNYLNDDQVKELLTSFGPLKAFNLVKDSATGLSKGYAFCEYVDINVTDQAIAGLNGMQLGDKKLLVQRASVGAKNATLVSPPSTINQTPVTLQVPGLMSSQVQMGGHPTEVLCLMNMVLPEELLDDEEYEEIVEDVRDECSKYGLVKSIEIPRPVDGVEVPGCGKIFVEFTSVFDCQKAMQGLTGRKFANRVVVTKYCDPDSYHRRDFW
Technique: sequencing of bound RNA
Form: RNA
Notes: motif only
Measurement: Kd
Each molecule: ssRNA
CUAUUUUCU: 12400 nM
AUUUUUGUU: 2830 nM
GUGUAAUUU: 10900 nM

Other studies, line by line
B1: human SIN3A; sequence looked up; chain MKRRLDDQESPVYAAQQRRIPGSTEAFPHQHRVLAPAPPVYEAVSETMQSATGIQYSVTPSYQVSAMPQSSGSHGPAIAAVHSSHHHPTAVQPHGGQVVQSHAHPAPPVAPVQGQQQFQRLKVEDALSYLDQVKLQFGSQPQVYNDFLDIMKEFKSQSIDTPGVISRVSQLFKGHPDLIMGFNTFLPPGYKIEVQTNDMVNVTTPGQVHQIPTHGIQPQPQPPPQHPSQPSAQSAPAPAQPAPQPPPAKVSKPSQLQAHTPASQQTPPLPPYASPRSPPVQPHTPVTISLGTAPSLQNNQPVEFNHAINYVNKIKNRFQGQPDIYKAFLEILHTYQKEQRNAKEAGGNYTPALTEQEVYAQVARLFKNQEDLLSEFGQFLPDANSSVLLSKTTAEKVDSVRNDHGGTVKKPQLNNKPQRPSQNGCQIRRHPTGTTPPVKKKPKLLNLKDSSMADASKHGGGTESLFFDKVRKALRSAEAYENFLRCLVIFNQEVISRAELVQLVSPFLGKFPELFNWFKNFLGYKESVHLETYPKERATEGIAMEIDYASCKRLGSSYRALPKSYQQPKCTGRTPLCKEVLNDTWVSFPSWSEDSTFVSSKKTQYEEHIYRCEDERFELDVVLETNLATIRVLEAIQKKLSRLSAEEQAKFRLDNTLGGTSEVIHRKALQRIYADKAADIIDGLRKNPSIAVPIVLKRLKMKEEEWREAQRGFNKVWREQNEKYYLKSLDHQGINFKQNDTKVLRSKSLLNEIESIYDERQEQATEENAGVPVGPHLSLAYEDKQILEDAAALIIHHVKRQTGIQKEDKYKIKQIMHHFIPDLLFAQRGDLSDVEEEEEEEMDVDEATGAVKKHNGVGGSPPKSKLLFSNTAAQKLRGMDEVYNLFYVNNNWYIFMRLHQILCLRLLRICSQAERQIEEENREREWEREVLGIKRDKSDSPAIQLRLKEPMDVDVEDYYPAFLDMVRSLLDGNIDSSQYEDSLREMFTIHAYIAFTMDKLIQSIVRQLQHIVSDEICVQVTDLYLAENNNGATGGQLNTQNSRSLLESTYQRKAEQLMSDENCFKLMFIQSQGQVQLTIELLDTEEENSDDPVEAERWSDYVERYMNSDTTSPELREHLAQKPVFLPRNLRRIRKCQRGREQQEKEGKEGNSKKTMENVDSLDKLECRFKLNSYKMVYVIKSEDYMYRRTALLRAHQSHERVSKRLHQRFQAWVDKWTKEHVPREMAAETSKWLMGEGLEGLVPCTTTCDTETLHFVSINKYRVKYGTVFKAP
B1 (human SIN3A)
log2 fold change (CYB5R4 knockout human cells; PP4 interaction, 3xFLAG-PP4C IP-MS; concentration not given; reference: CYB5R4 KO over parental): 0.46

FNA / CGLSGLGVA-NH2 ([18F]FNA-labelled, C-amide)
tissue uptake (gamma counting; peptide, glioblastoma mice, femur (bone and marrow); 60 min): 0.59 %ID/g

Some of these lines once more (sample 1):
TCCTGAAGGGACGCCTATAAAAGGTCCTATCGTCGTCAAGTCAATCGGTCC: 4.94 ± 0.78 nM
